Published values pooled from the literature.
Parts stem from different laboratories: compare values within a part only.

Block 1 — technique: protein binding microarray; molecule type: double-stranded DNA, one strand shown; matrix: in vitro; concentration: not given; reference: not given; reading: higher = stronger binding
Target: Histone acetyltransferase KAT6A, winged helix 1, GST fusion (KAT6A, Homo sapiens, UniProt Q92794, residues 1-85)
Setting: 8-mer, flanks averaged, mean of 2 arrays, mostly near background
Construct (chain): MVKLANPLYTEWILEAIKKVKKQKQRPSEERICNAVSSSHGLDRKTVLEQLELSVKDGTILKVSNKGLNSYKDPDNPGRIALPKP
Sequence | E-score
AGTTTGAC | -0.0443
AGACCGTG | 0.214
GCCCTTCC | -0.0789
CACATATA | -0.0506
ACCAAGAG | -0.207
CTCATCGC | 0.0602
CGGCGGCA | 0.471
CCAGGTTC | -0.217
CCAGCAGG | -0.0608
CCACCACC | -0.149
GAACGGCA | 0.254
ACAAACTG | -0.188
ACGGGATC | 0.342
AATTCTCC | -0.0223
AAACGCTT | -0.119
CTCACGCA | 0.0488
GATCAAGA | -0.0818
ACTTTGGA | -0.243
CGGATTCA | 0.0192
CGCCCTCA | 0.0237
AGACTGCA | -0.18
ATTACGGA | 0.297
AGAGTTGC | 0.0768
GTTGGGAA | -0.183
GCCGGGCA | 0.362

Block 2 — technique: universal PBM; molecule type: double-stranded DNA, one strand shown; matrix: in vitro; concentration: 600 nM; reading: higher = stronger binding
Target: Sal-like protein 4, full length isoform A (SALL4, Homo sapiens, UniProt Q9UJQ4, residues 1-1053)
Chain of UniProt Q9UJQ4 (whole entry, looked up): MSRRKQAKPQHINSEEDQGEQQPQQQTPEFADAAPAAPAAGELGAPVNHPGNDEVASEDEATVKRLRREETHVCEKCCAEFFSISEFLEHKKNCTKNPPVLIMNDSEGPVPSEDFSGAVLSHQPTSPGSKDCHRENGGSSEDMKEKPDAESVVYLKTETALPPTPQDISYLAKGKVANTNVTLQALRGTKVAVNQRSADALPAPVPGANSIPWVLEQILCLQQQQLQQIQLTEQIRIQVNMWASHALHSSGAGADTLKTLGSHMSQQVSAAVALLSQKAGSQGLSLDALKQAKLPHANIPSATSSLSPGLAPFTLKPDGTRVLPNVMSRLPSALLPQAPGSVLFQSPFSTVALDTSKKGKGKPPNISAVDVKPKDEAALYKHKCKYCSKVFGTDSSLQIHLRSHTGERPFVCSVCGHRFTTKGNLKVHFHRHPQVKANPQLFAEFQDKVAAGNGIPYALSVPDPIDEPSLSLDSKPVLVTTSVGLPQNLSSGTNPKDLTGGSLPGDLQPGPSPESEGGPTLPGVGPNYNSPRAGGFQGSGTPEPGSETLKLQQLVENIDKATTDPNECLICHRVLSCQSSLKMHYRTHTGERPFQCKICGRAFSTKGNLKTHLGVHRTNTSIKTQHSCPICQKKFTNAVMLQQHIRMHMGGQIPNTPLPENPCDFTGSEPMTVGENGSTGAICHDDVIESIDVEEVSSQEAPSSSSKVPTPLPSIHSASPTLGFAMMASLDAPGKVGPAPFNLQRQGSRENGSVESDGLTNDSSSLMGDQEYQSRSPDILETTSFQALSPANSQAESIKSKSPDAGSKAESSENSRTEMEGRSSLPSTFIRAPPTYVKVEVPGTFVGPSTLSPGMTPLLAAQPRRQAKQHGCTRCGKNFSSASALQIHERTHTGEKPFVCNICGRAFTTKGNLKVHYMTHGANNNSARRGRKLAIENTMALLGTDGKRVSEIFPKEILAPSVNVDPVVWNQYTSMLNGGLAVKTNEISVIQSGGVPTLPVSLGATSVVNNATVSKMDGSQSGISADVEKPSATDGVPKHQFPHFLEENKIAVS
Setting: 8-mer, flanks averaged, mean of replicates
Sequence | E-score
AAACCAGA | 0.04
ACCGATAC | 0.0675
AACTCTAA | 0.19
CCCTCCAG | -0.273
AGCGAGAC | -0.333
AGGGAGGC | -0.25
TGCTGAAA | 0.0464
GGGAGGGA | -0.115
ACAGTGGC | -0.191
CGCTCCCG | -0.204
GACCGATA | -0.018
CAGCTCTC | -0.203
CCCTGTAA | -0.0243
GGGGGATA | -0.0475
GGTTGGAC | -0.0653
TAGATCAA | 0.184
AGACGTTG | -0.0582
AAAGTTTG | 0.191
GAATTTGC | 0.135
GCATGGTA | -0.0327

Block 3 — technique: aptamer microarray, sandwich; molecule type: DNA with 2'F-ANA; matrix: in vitro; concentration: 200 nM; with: Cy3 exosite-II aptamer, 400 nM; reading: higher = stronger binding; sequence: GGTTGGTGTGGTTGG
Target: Prothrombin, mature alpha-thrombin (F2, Homo sapiens, UniProt P00734)
Setting: whole 15-mer aptamer, many near background
Modification | mean fluorescence intensity
2'F-ANA at 2 4 8 9 10 13 | 72.3 a.u.
2'F-ANA at 2 4 5 9 10 | 84.9 a.u.
2'F-ANA at 1 2 5 7 8 9 10 11 13 | 50.6 a.u.
2'F-ANA at 2 5 6 7 8 11 15 | 66.4 a.u.
2'F-ANA at 4 5 6 7 9 10 11 | 81.5 a.u.
2'F-ANA at 1 2 5 6 7 8 10 11 12 15 | 48.6 a.u.
2'F-ANA at 1 4 5 6 9 10 12 14 | 45 a.u.
2'F-ANA at 2 3 4 5 6 9 10 11 13 15 | 49.2 a.u.
2'F-ANA at 1 3 6 9 11 13 | 185 a.u.
2'F-ANA at 3 4 5 6 7 8 | 116 a.u.
2'F-ANA at 2 3 8 10 11 12 | 424 a.u.
2'F-ANA at 5 8 9 11 13 15 | 55 a.u.
2'F-ANA at 1 2 5 6 8 9 10 11 13 15 | 53.2 a.u.
2'F-ANA at 1 3 7 13 14 | 91.8 a.u.
2'F-ANA at 1 7 8 9 10 11 12 | 90.4 a.u.
2'F-ANA at 4 7 11 15 | 263 a.u.
2'F-ANA at 1 8 10 12 13 | 66.9 a.u.
2'F-ANA at 1 3 4 5 6 7 10 11 15 | 49.7 a.u.
2'F-ANA at 1 2 4 5 6 7 8 9 10 13 14 15 | 51.5 a.u.
2'F-ANA at 1 7 8 10 11 12 14 15 | 48.3 a.u.
2'F-ANA at 2 5 8 10 11 13 14 15 | 96.3 a.u.
2'F-ANA at 4 6 8 12 14 15 | 124 a.u.
2'F-ANA at 1 2 3 5 6 7 10 11 12 15 | 56.6 a.u.
2'F-ANA at 5 6 8 10 12 | 48.6 a.u.
2'F-ANA at 1 6 7 8 9 10 11 13 | 54.5 a.u.

Block 4 — technique: RNA Bind-n-Seq; molecule type: RNA; matrix: in vitro; concentration: 365 nM; reference: no-protein control; reading: higher = stronger binding
Target: RNA binding protein fox-1 homolog 2, RRM domain, GST-SBP tag (RBFOX2, Homo sapiens, UniProt O43251-10, residues 100-194)
Setting: natural RNA segment, single round, ends assumed
Target sequence (chain): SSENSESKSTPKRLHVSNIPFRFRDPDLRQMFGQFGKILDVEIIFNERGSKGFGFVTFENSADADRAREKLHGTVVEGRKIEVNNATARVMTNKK
Sequence | RBNS enrichment (R)
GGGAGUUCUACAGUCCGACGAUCGCACUGCAUUAAACCUGGCUGGUCUCUUGUCUUGACUUCCUAUAUCUUUGGCUCCUUCUGUCUCAGAAUGAUGGGAAGCCUGACGGGGACCUGAGGAUUGAGGUCCUUGCUGGAAUUCUCGGGUGCCAA | 0.534
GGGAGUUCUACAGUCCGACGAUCUACAGAACUGGGAUGUGAACAUUGGUCAGAGACCCCACCCAUUAGUAGCUGGAGCCUCUGGGCUCCUCAGUCCCAUGCAACAUCCCUGGGACCUGGGGAAGGGAUGCUGAUGGAAUUCUCGGGUGCCAA | 0.758
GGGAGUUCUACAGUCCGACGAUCAUGUCCUAUAAAUGCACCUCCUGUCAAAACCAUGCCUGAGAGGUCCCGGCUGGGAGUGACAGGGUGCUUCUUAGAUUCUAUUGGUCCUUCUCUCAUUCUCCGAACUUACUUGGAAUUCUCGGGUGCCAA | 0.374
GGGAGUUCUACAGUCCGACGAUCGGUGGUUAAACGGGUAACAGAAAUACUGUAUUGUGAGAAAUGACACAACAAAAGCCGGCAGGCAUCUUUAAGGGCUAUGCCUAGGGAGACUACUAACAUGGAGAGAAUGCUGGAAUUCUCGGGUGCCAA | 0.885
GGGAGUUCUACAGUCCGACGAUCAGGGAGUCCCCUCUUAGGACAGGCACUGCCCAGCAGCAAGGGCAGCAGAGUUGGGUGCUAAGAUCCUGAGGAGCUCGAGGUUUCGAGCUGGCUUUAGACAUUGGUGGGACUGGAAUUCUCGGGUGCCAA | 0.665
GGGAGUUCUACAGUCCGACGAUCCGUGCAGGUGGUGGUGGAGCUGAUCCUGCAGGCGCGACCCUGGGACCAGGUCCUGAAUGCCCUGAAGCAUCACUUCCCAGCAGAGUCCAGAACAGUAAGUACCACUGGACUGGAAUUCUCGGGUGCCAA | 0.361
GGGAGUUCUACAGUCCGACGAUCAGCCUUCAGCCCUGCUGCCCUGCCUGUGGGAGCAGCUUUGACUCCAGUCCAGAAGGGUUUCUGCAGACUGUGUUGGGUGAGACGCAGAAAGGAUGAAAUCUCAGAACACAUGGAAUUCUCGGGUGCCAA | 0.74
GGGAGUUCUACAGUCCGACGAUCACACAGUGCAGAGCAGAGCCCAGGAGGGGCCACAGGCAUCAGUGAACUCUCCUUGCCUAGGAUGGCAACUGAUUUUGCUCUCUUUGGAAAGAUUCUAGAUAAGUCAGCAUUGGAAUUCUCGGGUGCCAA | 0.622
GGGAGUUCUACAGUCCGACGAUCUAGCGCUGUUGAUCCCCUCUCUGUGGCUCCAACCCGUUGGGUCCCUUGCUGCAAACCCAUGAAGCUGGCCCUCAGCUCCCUGACCCCCUGUCCUAGGUCAUGAAGGACACUGGAAUUCUCGGGUGCCAA | 0.397
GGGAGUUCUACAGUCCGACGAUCCCUCCCAGCAGAAAGCUCUGCUUGGCUUUUGGUGCACUGCUCACCCCCAGCUCCACUGGCCCAAGUCUGAGCCUGGGGCCCUUGCUUUGAGGGGCCAGUCCGAGUUGGAUUGGAAUUCUCGGGUGCCAA | 0.294
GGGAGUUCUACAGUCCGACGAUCGGGGUGAUGUUUUACUUUUCACAGUAUGGGCUACACAGCAGCUGUUCAACAAGAGUAAAUAUUGUCACAACACUGAACCUCUGGCUAGAGGACAUAUUCACAGUGAACAUUGGAAUUCUCGGGUGCCAA | 0.324
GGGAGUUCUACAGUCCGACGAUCCUUCUGCCCAAGUCUGUGUCCCAUCAGACUUGCAGCCUUUCAGCUUAACAGUUGCCCGGUCCUGCUGGCCCCUUUUCCUCUGGCCCCCCUCUUCUGAAACAGGAUGUGCAUGGAAUUCUCGGGUGCCAA | 2.6

Block 5 — technique: protein-binding microarray; molecule type: double-stranded DNA, one strand shown; matrix: in vitro; concentration: 940 nM top; setting: 60-bp whole probe; with: salmon DNA 0.4 mg/ml; reference: random background probes; reading: higher = stronger binding; all sequences stand within: GCCTAGCAC … GTCTTGATTCGCTTGACGCTGCTG
Target: Interferon regulatory factor 5, full length, phosphomimetic (IRF5, Homo sapiens, UniProt Q13568-2, residues 1-514, S451D/S453D/S456D/S462D)
Sequence | fitted relative affinity [z-score]
GACGGTCTCCTTTTCGTGACGTGCTAG | 0.671
TTAGAATTGAGTATCGATTAGTGCTAG | 4.94
ATGTTTTTCATTGTTTTTCAGTGCTAG | 1.31
GACGGCCTGGGACTGGGGACGTGCTAG | -0.767
GACGGTATCGACTATCCGGACGTGCTA | 6.14
GACGGTTTCGGACTGTGGACGTGCTAG | 5.68
TCACACTCCAGTCTGGGACTGTGCTAG | 0.198
TTAGATTTCAGTCTCTATTAGTGCTAG | 1.78
GACTAACTGGGGACTGGAGACGTGCTA | -0.101
CGAGTTTTCTCTCCCATTCTGTGCTAG | 1.4
GACGATATCAGTATTGAGACGTGCTAG | -0.0579
TAAGATATCAGACTGGATTAGTGCTAG | -0.57
TCACATCTCTCTTAAATACTGTGCTAG | 1.27
GACGGTATCGGGTATCTGGACGTGCTA | 4.63
GACGGTTTCCTTTTCCTCACGTGCTAG | 2.07
TTTCCCATGAGTCTCAAAATGTGCTAG | 0.995
